Measurements gathered from unrelated publications.
A part holds a random share of what one study measured. Values joined by “and” are separate records of one study, mostly repeats; a detail may differ.

Sample 1
Target: Beta-1 adrenergic receptor (ADRB1, Homo sapiens, UniProt P08588)
UniProt P08588, sequence (whole entry, looked up): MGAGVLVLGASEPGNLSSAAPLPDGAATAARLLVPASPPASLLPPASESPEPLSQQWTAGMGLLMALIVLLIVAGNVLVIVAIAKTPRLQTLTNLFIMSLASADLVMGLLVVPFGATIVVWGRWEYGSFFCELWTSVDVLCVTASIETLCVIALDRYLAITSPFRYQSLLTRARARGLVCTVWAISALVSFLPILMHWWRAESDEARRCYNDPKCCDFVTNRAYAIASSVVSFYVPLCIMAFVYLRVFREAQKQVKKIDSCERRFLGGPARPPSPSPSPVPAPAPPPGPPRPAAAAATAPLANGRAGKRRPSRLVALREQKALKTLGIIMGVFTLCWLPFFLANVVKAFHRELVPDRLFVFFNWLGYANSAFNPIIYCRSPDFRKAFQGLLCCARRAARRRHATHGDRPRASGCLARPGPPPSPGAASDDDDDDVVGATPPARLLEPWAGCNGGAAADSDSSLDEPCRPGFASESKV
Action: antagonist
Compound | IC50 [µM]
CN(C)c1cccc(-c2cc(N3CCOCC3=O)c3cncn3c2)c1 | ≥ 100
Cc1cc(-c2nc3ccccc3s2)nc2ccccc12 | ≥ 100
Cc1cc(=O)oc2c(O)c(O)ccc12 | ≥ 100
O=C(c1cc(O)nc2ccccc12)N1CCC(Cn2nc(-c3ccccc3)ccc2=O)CC1 | ≥ 100

Sample 2
Target: Histamine H2 receptor (HRH2, Homo sapiens, UniProt P25021)
UniProt P25021, sequence (whole entry, looked up): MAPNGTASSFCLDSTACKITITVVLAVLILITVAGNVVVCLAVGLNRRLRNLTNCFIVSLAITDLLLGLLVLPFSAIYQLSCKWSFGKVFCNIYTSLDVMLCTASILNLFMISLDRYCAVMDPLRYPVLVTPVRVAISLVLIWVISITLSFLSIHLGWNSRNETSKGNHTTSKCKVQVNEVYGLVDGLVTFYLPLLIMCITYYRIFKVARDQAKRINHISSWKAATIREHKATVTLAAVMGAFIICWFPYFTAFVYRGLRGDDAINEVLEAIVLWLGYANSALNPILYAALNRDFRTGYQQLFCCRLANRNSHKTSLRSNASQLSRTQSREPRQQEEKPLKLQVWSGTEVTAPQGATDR
Effect on: binding
Method: radioligand binding
Tested at: 10 µM
Structure (SMILES) | inhibition
CC1=C(C#N)C(c2ccc3c(c2)c(NC(=O)c2ccccc2C)nn3C)C(C#N)=C(C)N1 | 8.7%
COc1nc2ccc([C@@](O)(c3ccccc3)C3CCN(C(C)=O)CC3)cc2c(Cl)c1Cc1ccc(-n2cccn2)cc1 | -0.99%
Cc1nc(C2CCN(C(=O)c3ccc(OC(F)(F)F)cc3N)CC2)c2ncc(N3CCN(C)CC3)cc2n1 | 23.6%
Cc1c[nH]c2nccc(Oc3c(F)cc(Nc4cc(Cl)nc(N)n4)cc3F)c12 | 23.7%

Sample 3
Target: Serine/threonine-protein kinase SIK2 (SIK2, Homo sapiens, UniProt Q9H0K1)
UniProt Q9H0K1, sequence (whole entry, looked up): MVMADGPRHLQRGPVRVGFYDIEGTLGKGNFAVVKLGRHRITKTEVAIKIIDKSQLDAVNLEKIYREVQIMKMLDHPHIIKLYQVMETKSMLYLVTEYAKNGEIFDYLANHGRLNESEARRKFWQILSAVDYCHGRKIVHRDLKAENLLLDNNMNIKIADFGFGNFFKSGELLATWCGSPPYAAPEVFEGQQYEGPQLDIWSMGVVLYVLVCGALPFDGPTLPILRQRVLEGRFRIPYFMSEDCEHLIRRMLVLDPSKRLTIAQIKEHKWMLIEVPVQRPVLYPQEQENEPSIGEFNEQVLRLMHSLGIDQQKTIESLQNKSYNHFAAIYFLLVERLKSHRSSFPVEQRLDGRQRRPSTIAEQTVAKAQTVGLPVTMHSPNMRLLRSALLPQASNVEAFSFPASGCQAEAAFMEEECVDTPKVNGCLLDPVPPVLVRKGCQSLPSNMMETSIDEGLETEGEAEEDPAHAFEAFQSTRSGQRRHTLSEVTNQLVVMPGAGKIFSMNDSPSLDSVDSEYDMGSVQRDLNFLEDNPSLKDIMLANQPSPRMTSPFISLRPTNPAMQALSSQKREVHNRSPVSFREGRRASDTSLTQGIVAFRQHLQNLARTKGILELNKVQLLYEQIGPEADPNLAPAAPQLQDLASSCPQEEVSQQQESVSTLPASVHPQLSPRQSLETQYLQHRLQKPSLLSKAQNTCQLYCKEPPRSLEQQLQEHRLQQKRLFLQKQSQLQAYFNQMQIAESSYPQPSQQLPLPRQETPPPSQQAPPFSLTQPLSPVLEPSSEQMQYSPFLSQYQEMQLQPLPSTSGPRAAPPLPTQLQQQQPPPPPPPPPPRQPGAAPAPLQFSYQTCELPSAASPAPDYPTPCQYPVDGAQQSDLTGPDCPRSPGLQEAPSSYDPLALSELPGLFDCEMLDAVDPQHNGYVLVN
Effect on: enzyme activity
Action: inhibitor
Tested at: 0.5 µM
Relative to: control
SMILES | remaining activity
C#Cc1cccc(Nc2ncnc3cc(OCCOC)c(OCCOC)cc23)c1 | 86.4%
COc1ccc(C(=O)Nc2sc3c(c2C(N)=O)CCCC3)cc1OC | 102%
N#CC(C#N)=C(N)/C(C#N)=C/c1ccc(O)cc1 | 87.7%
O=C1NC(=O)C(c2cn(CCCn3ccnc3)c3ccccc23)=C1Nc1ccccc1 | 90.3%
Nc1ncnc2n[nH]c(Nc3ccc(F)cc3)c12 | 78.7%
CCOC(=O)c1c(C)[nH]c(/C=C2\C(=O)Nc3ccccc32)c1C | 99.9%
Cn1c2ccccc2c2c3c(c4c5ccccc5n(CCC#N)c4c21)CNC3=O | 54.5%
Cn1sc(=O)n(Cc2ccccc2)c1=O | 98.6%
Cc1nc(-c2ccccc2)c(-c2ccncc2)o1 | 86.2%
COc1ccc(OC)c2c(=S)c3ccccc3[nH]c12 | 114%
OCC(O)CCON=C1C(c2c(O)[nH]c3ccccc23)=Nc2ccccc21 (stereo not drawn) | 75.1%
CC(C)[C@H](CO)Nc1nc(Nc2cc(N)cc(Cl)c2)c2ncn(C(C)C)c2n1 | 104%
Cc1ccc(NC(=O)c2ccc(CN3CCN(C)CC3)cc2)cc1Nc1nc(-c2cccnc2)cs1 | 99.7%
Cc1cccc(-c2[nH]c(C(C)(C)C)nc2-c2ccc3c(c2)OCO3)n1 | 91.4%
CO[C@H]1C[C@@H]2CC[C@@H](C)[C@@](O)(O2)C(=O)C(=O)N2CCCC[C@H]2C(=O)O[C@H]([C@H](C)C[C@@H]2CC[C@@H](O)[C@H](OC)C2)CC(=O)[C@H](C)/C=C(\C)[C@@H](O)[C@@H](OC)C(=O)[C@H](C)C[C@H](C)/C=C/C=C/C=C/1C | 94.3%
O=C(Nc1cccc(Nc2cc(Nc3cccc(C(F)(F)F)c3)ncn2)c1)C1CC1 | 89.4%

Sample 4
Compound: Cc1cc2c(C(N)=O)c(N)n(-c3c(C)ccc(O)c3C)c2nc1C
tested on | test | setting | inhibition
HCC1569 | automated capillary immunoblot, refers to: CDK1 phospho-Thr14 | 333.33 nM | 81.7%
NCI-H1648 | cell proliferation | 13.72 nM | -26.9% and -21.8% and -24.6%
SW1463 | cell proliferation | 41.15 nM | 7.75% and 3.72%
Proto-oncogene tyrosine-protein kinase Src (SRC, Homo sapiens, UniProt P12931) | enzyme activity, inhibitor, TR-FRET | 4.572 nM | 44%

Sample 5
Host: mouse
Sample: microsomes or S9
Tested at: 2 µM
Time: 0.5 h
SMILES | remaining compound [%]
COCCN(Cc1ccc(C)c(Br)c1)C(=O)Cn1cnc(S(=O)(=O)N2CCCC2)c1 | 77.8
CCc1cnc(N2CCC(Oc3cc(=O)n(-c4ccc(OC)nc4)c(=O)n3C)CC2)nc1 | > 100
CCc1cc(=O)[nH]c(-n2nc(C)cc2NC(=O)c2c(-c3ccccc3Cl)noc2C)n1 | > 100
COc1cc(=O)n(C)cc1C(=O)Nc1nc(-c2ccccn2)cs1 | 18.1
O=C(c1cccs1)N1c2nc(C3CCCCC3)nn2C2(CCCCC2)[C@@H]2CCCC[C@@H]21 | 0.686

For quick reference, copied from above (sample 3):
SMILES | remaining activity
Cn1sc(=O)n(Cc2ccccc2)c1=O | 98.6%
Cn1c2ccccc2c2c3c(c4c5ccccc5n(CCC#N)c4c21)CNC3=O | 54.5%
